Published values of several laboratories.
“And” joins repeats or separate records; there may be more than shown. Numbers after ± are the reported error. No end group written: not given here.
B1: bicyclic; chain AATCHCRRSCYSTEYSYGTCTVMGINHRFCCL (also: bicyclic or more (positions not given here))

With `COC(=O)Nc1nc2ccc(Sc3ccccc3)cc2[nH]1` the thermodynamic solubility was 2.83 ± 0.07 mg/g (shake-flask; PEG400; 37 °C).
For `Cn1cc(-c2ccc3nnc(Sc4ccc5ncccc5c4)n3n2)cn1`, the CLint was 10.4 ± 3.2 mL/min/kg (Sprague-Dawley rat male, hepatic S9; 1 µM, pH 7.4, together with: without NADPH).
`c1cc(-c2c[nH]c3nccc(N4CCC[C@@]5(CCCCN5)C4)c23)ncn1`: “blood concentration ratio” 4 fold (FVB mice, blood; topical, repeated 25 µg; reference: single 10 µg dose).
`CS(=O)(=O)Nc1ccc(C(=O)O[C@@H](Cc2c(Cl)c[n+]([O-])cc2Cl)c2ccc(OC(F)F)c(OCC3CC3)c2)cc1OCC1CC1` gave a tmax of 2 h (human, plasma; inhaled, 1600 µg once daily, day 1, single-dose dry powder inhaler).
The alpha half-life of `Oc1ccc(C(c2ccc(O)cc2)(C(F)(F)F)C(F)(F)F)cc1` is reported as 1.43 h (refers to: free compound; Hsd:Sprague Dawley rat male, plasma; oral gavage, 340 mg/kg single dose).
With `NCCCC(=O)O` the steady-state concentration was 4460 ng/mL and ~4460 ng/mL (LC-MS; Sprague-Dawley rat, male, anaesthetised, plasma; intravenous infusion, 50 mg/kg/h).
`C[C@H](Oc1ccc(-c2nc(-c3ccc4[nH]cnc4c3)no2)cc1C(F)(F)F)C(F)(F)F` gave a plasma concentration of 9.3 ± 2.2 nM (cynomolgus monkey, aneurysm model, plasma; 0.1 mg/kg once daily, 1 h post-dose, 3 months dosing).
`O=C(c1cc(Cc2n[nH]c(=O)c3ccccc23)ccc1F)N1CCN(C(=O)C2CC2)CC1` gave an AUC(0-10 h) of 35200 ± 17100 ng·h/mL (human patients, plasma; oral, 400 mg twice daily, day 2, together with: pegylated liposomal doxorubicin).
`O=C(O)CNC(=O)/C=C/c1ccccc1`: “total plasma concentration ratio” 28 (human hemodialysis patients, plasma; pre-treatment; reference: hemodialysis over normal subjects).
For `CC(C)/N=c1\cc2n(-c3ccc(Cl)cc3)c3ccccc3nc-2cc1Nc1ccc(Cl)cc1`, the thermodynamic solubility was 15.6 ± 1.04 mg/g (shake-flask; polysorbate 80; 37 °C).
For `B1`, “sedimentation coefficient s20,w” read about 0.8 S (analytical ultracentrifugation; 10 mM sodium phosphate; 40 to 160 µM, pH 7.4, 20 °C).
The peptide cleavage of `IDKQLE` is reported as under 5% (substrate, gel electrophoresis; peptide, mouse, PyMT tumour, PyMT tumour tissue extract; 5 µM, 16 h, 37 °C, 2% extract, 1 mM ZnCl2).
For `CCCC[C@H](NC(C)=O)C(=O)N[C@H]1CCC(=O)NC[C@@H](C(=O)N[C@@H](Cc2c[nH]c3ccccc23)C(N)=O)NC(=O)[C@H](CCCNC(=N)N)NC(=O)[C@@H](Cc2ccccc2)NC(=O)[C@H](Cc2c[nH]cn2)NC1=O`, the Vd/F was 257 L (healthy human, both sexes, plasma; subcutaneous, 3.0 mg once daily, day 1, arithmetic mean).
For `CC1=C2C[C@H]3[C@@H](CC[C@@H]4C[C@H](NS(C)(=O)=O)CC[C@@]43C)[C@@H]2CC[C@@]2(C1)O[C@@H]1C[C@H](C)CN[C@H]1[C@H]2C`, “AUClast and Cmax” read “no effect” (human; oral, 130 mg, together with: high-fat meal; reference: fasted).
For `des-acyl ghrelin (human)`, the tissue/serum ratio was 7.02 µL/g (wild-type mice, midbrain; intravenous, dose not given, 10 min, vascular space corrected).
`O=c1[nH]nc(CCc2cc(F)cc(F)c2)cc1O` has a compound remaining of 59% (metabolic stability; mouse, liver microsomes; 1 h, pH 7.5, with UDPGA).
For `COc1cc(OC)c(/C=C/S(=O)(=O)Cc2ccc(OC)c(NCC(=O)O)c2)c(OC)c1`, the half-life was 3.09 ± 2.18 h (cancer patients, phase I, plasma; oral, 700 mg twice daily, day 1 cycle 1).
The brain concentration of `COc1cnc(C(=O)Nc2ccc(F)c([C@]34CN(c5ncc(F)cn5)C[C@H]3CSC(N)=N4)c2)cn1` is reported as 38.1 nM (PDAPP mice, brain; oral, 1.0 mg/kg, 3 h).
`COc1c(OCCCN2CCOCC2)ccc2c1N=C(NC(=O)c1cnc(N)nc1)N1CCN=C21` has an AUC(0-25 h) of 1690 ng·h/mL (human, solid tumours, plasma; intravenous, 0.8 mg/kg, cycle 1 day 1).

For quick reference, copied from above:
For `des-acyl ghrelin (human)`, the tissue/serum ratio was 7.02 µL/g (wild-type mice, midbrain; intravenous, dose not given, 10 min, vascular space corrected).
`O=c1[nH]nc(CCc2cc(F)cc(F)c2)cc1O` has a compound remaining of 59% (metabolic stability; mouse, liver microsomes; 1 h, pH 7.5, with UDPGA).
